Measurements collected from several papers.
Lines come from different studies, so protocols differ. ± marks the error that the study gave.
Chymotrypsinogen A: Chymotrypsinogen A (Bos taurus, UniProt P00766)
DRD5: D(1B) dopamine receptor (DRD5, Homo sapiens, UniProt P21918)
Chain of UniProt Q86X55 (whole entry, looked up): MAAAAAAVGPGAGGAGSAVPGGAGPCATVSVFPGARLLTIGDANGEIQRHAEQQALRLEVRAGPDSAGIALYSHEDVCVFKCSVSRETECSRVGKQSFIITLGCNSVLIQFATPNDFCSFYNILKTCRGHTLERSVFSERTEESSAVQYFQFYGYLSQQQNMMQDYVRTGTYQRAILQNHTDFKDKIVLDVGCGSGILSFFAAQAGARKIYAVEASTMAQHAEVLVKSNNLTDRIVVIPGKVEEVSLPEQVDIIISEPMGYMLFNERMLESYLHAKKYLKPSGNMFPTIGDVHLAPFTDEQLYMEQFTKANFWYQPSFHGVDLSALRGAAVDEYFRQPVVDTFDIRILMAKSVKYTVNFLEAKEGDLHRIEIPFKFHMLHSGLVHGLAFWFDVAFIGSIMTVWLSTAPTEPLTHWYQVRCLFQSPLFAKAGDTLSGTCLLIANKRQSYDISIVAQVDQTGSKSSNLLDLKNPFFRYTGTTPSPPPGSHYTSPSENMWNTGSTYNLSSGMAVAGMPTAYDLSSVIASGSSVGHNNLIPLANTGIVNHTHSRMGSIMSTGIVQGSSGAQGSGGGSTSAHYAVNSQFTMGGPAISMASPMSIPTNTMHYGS
Chain of UniProt Q02763 (whole entry, unmodified, looked up): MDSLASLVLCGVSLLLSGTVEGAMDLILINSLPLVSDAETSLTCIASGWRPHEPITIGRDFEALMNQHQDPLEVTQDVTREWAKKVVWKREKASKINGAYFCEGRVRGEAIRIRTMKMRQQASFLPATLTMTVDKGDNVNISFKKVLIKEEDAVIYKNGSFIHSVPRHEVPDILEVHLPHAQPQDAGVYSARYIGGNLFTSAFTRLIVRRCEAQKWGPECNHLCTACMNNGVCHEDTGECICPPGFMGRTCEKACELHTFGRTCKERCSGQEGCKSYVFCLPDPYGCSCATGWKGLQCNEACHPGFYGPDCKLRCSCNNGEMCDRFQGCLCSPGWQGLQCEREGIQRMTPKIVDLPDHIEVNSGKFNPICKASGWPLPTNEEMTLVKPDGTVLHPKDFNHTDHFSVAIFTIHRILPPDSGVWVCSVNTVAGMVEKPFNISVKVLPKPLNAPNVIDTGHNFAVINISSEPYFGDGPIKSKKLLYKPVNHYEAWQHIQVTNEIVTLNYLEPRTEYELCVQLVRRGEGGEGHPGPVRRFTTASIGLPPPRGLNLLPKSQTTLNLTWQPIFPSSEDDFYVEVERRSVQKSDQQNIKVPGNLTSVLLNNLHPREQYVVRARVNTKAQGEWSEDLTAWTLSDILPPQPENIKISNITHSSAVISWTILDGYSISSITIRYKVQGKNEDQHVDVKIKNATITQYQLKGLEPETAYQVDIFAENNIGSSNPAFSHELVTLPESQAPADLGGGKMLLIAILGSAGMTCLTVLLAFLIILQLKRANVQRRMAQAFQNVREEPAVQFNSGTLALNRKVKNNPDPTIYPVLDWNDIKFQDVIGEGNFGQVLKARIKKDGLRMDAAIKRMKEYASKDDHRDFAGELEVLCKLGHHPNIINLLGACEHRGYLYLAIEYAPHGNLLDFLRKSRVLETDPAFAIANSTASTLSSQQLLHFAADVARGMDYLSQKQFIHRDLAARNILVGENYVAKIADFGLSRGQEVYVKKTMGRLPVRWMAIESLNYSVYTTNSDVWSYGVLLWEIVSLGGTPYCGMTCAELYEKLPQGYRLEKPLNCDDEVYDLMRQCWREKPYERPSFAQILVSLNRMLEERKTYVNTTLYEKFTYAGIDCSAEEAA
Chain of UniProt P20309 (whole entry, looked up): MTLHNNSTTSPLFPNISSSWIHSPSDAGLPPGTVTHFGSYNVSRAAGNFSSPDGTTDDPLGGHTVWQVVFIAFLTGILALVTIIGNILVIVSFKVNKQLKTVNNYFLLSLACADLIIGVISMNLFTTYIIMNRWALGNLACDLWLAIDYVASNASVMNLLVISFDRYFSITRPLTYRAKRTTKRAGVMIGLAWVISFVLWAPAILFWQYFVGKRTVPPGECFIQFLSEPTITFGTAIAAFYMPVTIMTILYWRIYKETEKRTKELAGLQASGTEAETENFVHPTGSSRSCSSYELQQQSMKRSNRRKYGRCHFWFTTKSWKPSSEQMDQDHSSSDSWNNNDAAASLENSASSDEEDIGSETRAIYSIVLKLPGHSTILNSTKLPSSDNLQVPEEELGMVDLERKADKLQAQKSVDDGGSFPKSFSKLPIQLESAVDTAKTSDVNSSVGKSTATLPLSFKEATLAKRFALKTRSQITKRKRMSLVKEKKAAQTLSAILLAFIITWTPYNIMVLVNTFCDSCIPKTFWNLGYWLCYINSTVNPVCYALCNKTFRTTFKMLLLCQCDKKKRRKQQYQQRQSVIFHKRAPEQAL
Chain of UniProt P25100 (whole entry, looked up): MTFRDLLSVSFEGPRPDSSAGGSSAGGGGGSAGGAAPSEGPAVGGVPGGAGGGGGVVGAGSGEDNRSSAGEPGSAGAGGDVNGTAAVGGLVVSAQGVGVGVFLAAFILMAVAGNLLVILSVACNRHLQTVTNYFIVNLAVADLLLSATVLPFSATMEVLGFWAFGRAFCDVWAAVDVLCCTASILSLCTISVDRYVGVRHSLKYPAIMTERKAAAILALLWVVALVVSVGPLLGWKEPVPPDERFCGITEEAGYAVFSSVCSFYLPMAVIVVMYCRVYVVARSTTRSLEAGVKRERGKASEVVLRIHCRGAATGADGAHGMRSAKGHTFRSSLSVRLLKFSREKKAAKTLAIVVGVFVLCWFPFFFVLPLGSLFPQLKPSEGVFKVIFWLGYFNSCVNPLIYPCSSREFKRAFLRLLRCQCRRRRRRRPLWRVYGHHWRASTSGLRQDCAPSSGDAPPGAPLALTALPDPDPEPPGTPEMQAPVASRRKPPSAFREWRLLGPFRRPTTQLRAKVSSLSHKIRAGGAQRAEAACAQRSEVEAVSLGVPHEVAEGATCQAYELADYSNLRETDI
Chain of UniProt P41143 (whole entry, unmodified, looked up): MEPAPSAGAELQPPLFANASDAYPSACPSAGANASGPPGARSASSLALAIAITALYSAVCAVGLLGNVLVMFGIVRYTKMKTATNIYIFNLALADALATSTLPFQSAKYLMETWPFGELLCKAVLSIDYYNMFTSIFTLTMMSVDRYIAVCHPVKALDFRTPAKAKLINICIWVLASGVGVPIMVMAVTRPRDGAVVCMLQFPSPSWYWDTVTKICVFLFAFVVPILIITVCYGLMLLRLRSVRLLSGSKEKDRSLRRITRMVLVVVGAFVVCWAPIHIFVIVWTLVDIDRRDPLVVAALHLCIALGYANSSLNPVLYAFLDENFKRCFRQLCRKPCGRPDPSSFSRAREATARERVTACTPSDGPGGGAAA
Chain of UniProt O42275 (whole entry, looked up): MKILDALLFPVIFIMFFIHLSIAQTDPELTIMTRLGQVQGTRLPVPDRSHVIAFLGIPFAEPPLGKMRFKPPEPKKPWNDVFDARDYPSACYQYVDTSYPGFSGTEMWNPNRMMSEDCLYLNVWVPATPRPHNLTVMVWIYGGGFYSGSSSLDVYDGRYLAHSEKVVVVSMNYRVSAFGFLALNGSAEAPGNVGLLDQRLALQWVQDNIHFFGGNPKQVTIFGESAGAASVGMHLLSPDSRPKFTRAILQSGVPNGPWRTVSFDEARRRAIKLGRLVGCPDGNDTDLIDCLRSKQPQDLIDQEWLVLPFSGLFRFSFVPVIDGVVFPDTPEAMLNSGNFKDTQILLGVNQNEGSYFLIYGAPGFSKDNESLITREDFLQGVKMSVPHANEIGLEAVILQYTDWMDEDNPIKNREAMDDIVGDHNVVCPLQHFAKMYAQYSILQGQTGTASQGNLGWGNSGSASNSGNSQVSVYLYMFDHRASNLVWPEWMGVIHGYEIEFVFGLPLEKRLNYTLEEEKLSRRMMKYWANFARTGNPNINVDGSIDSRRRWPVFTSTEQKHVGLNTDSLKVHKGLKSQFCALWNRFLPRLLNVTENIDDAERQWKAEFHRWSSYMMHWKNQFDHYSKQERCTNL

For `CS(C)(=O)=Nc1ccc(-c2ccc(-c3nc4cc(O[C@@H]5CO[C@H]6[C@@H]5OC[C@H]6O)[nH]c4cc3F)cc2)cc1`, the inhibition was -5% (Angiopoietin-1 receptor (TEK, Homo sapiens, UniProt Q02763, R849W); enzyme activity, inhibitor; 10 µM).
The relative abundance of `COc1ccccc1-c1n[nH]c2nc(N[C@H]3CC[C@H](NS(=O)(=O)CC(C)C)CC3)ncc12` is reported as 0.73 (bead binding, competition bead pull-down, measured: LINJ.26.0770; Leishmania donovani extract; 10 µM; relative to: vehicle).
`CC(=O)NCCCC[C@H](NC(=O)[C@H](CCCNC(=N)NCCC[C@H]1O[C@@H](n2cnc3c(N)ncnc32)[C@H](O)[C@@H]1O)NC(=O)[C@@H]1CCCN1C(=O)[C@H](C)NC(=O)[C@H](CCCCN)NC(=O)CNC(C)=O)C(=O)N[C@@H](CCC(N)=O)C(=O)N[C@@H](CC(C)C)C(=O)N[C@@H](C)C(=O)N[C@H](C(N)=O)[C@@H](C)O` (relative stereo) has a Ki of 0.03 µM (Histone-arginine methyltransferase CARM1 (CARM1, Homo sapiens, UniProt Q86X55); enzyme activity, inhibitor).
`CN(C)[C@H](CNC(=O)/C=C/c1cccc2ccccc12)Cc1ccc(O)cc1` has a Ki of 15 ± 14 µM (Muscarinic acetylcholine receptor M3 (CHRM3, Homo sapiens, UniProt P20309)).
`CC(C)n1nc(-c2ccc3cc(OCc4cccc(Cl)c4)ccc3c2)c2c(N)ncnc21` gave a Ki of 0.848 µM (Tyrosine-protein kinase CSK (CSK, Homo sapiens, UniProt P41240, T266M); enzyme activity, inhibitor).
For `Cc1cc(O)cc(C)c1C[C@H](N)C(=O)N[C@H](CCCNC(=N)N)C(=O)N[C@@H](Cc1ccccc1)C(=O)N(C)CC(=O)N(C)Cc1cc(C(F)(F)F)cc(C(F)(F)F)c1`, the Ki was 0.00745 ± 0.00056 µM (Delta-type opioid receptor (OPRD1, Homo sapiens, UniProt P41143, N131S)).
For `CC(C)(C)C(=O)OCOP(=O)(OCOC(=O)C(C)(C)C)C1CCCN(O)C1=O` (stereo not drawn), the log GI50 was -6.31 log M (HOP-62).
`O=C1NC2(CC2)COc2ncc(F)cc2[C@H]2COCCN2c2ccn3ncc1c3n2`: “serum total protein” 58.8 ± 1.9 g/L (Sprague-Dawley rat, male, serum; oral, 2.5 mg/kg/day, end of recovery, 4-week subacute toxicity).
`COc1ccccc1-c1n[nH]c2nc(NC3CCN(C(=O)Cc4ccc(F)cc4F)CC3)ncc12` has a relative abundance of 0.96 (bead binding, competition bead pull-down, measured: LINJ.34.0080; Leishmania donovani extract; 10 µM; relative to: vehicle).
`Cc1ccc(/N=N/c2ccc(C)c([B-](F)(F)F)c2)cc1` gave a Ki of over 2000 µM (Chymotrypsinogen A; enzyme activity, inhibitor; pH 7.81, 25 °C, cis-enriched photostationary state, together with: Suc-AAPF-AMC).
The Ki of `O=S(=O)(N/N=C/c1ccc(OS(=O)(=O)c2cc(Cl)ccc2Cl)cc1)c1ccc(Cl)cc1` is reported as 0.104 µM (Acetylcholinesterase (ache, Electrophorus electricus, UniProt O42275); enzyme activity, inhibitor, Ellman).
With `CC(C)[C@@H]1NC(=O)[C@H](Cc2ccccc2)NC(=O)[C@H](Cc2ccc(O)cc2)NC(=O)CCSSC[C@@H](C(=O)N2CCC[C@H]2C(=O)N[C@H](CCCNC(=N)N)C(=O)NCC(N)=O)NC(=O)[C@H](CC(N)=O)NC(=O)[C@H](C(C)C)NC(=O)[C@H](Cc2ccccc2)NC(=O)[C@H](Cc2ccc(O)cc2)NC(=O)CCSSC[C@@H](C(=O)N2CCC[C@H]2C(=O)N[C@H](CCCNC(=N)N)C(=O)NCC(N)=O)NC(=O)[C@H](CC(N)=O)NC1=O` the Ki was 0.0086 µM (Vasopressin V2 receptor (AVPR2, Homo sapiens, UniProt P30518); ligand displacement, radioligand; cell membranes).
The Ki of `Cc1cccc(/N=N/c2cccc([B-](F)(F)F)c2)c1` is reported as 162 µM (Chymotrypsinogen A; enzyme activity, competitive inhibitor; buffer with 2 vol% DMSO; pH 7.81, 25 °C, thermally adapted trans state, together with: Suc-AAPF-AMC).
`CC[C@H](C)[C@H](NC(=O)[C@H](CO)NC(=O)[C@H](Cc1ccc(O)cc1)NC(=O)[C@H](Cc1ccc(O)cc1)NC(=O)[C@H](CC(N)=O)NC(=O)CNC(=O)[C@H](CO)NC(=O)[C@H](Cc1ccc(O)cc1)NC(=O)[C@H](CO)NC(=O)[C@H](CO)NC(=O)[C@H](CC(N)=O)NC(=O)COCCOCCNC(=O)CN1CCN(CC(=O)O)CCN(CC(=O)O)CCN(CC(=O)O)CC1)C(=O)N[C@@H](CC(C)C)C(N)=O` [copper-64 labelled] has a tumour uptake of 17.7 %ID/mL (dynamic PET; mouse, tamoxifen-induced PDAC, tumor; intravenous, 0.1 µg/mouse, 1.9 min).
`COc1cc2c(cc1O)C(CCc1ccc(Cl)cc1)N(C)CC2` (stereo not drawn) gave a Ki of 0.2 µM (DRD5; cell-free assay, radioligand).
The Ki of `N=C(N)NCCC[C@@H](N)C(=O)N[C@@H](CCCNC(=N)N)C(=O)N1CCC[C@H]1C(=O)N1C[C@H](O)C[C@H]1C(=O)NCC(=O)N[C@@H](Cc1cccs1)C(=O)N[C@@H](CO)C(=O)N1Cc2ccccc2C[C@@H]1C(=O)N1[C@H](C(=O)N[C@@H](CCCNC(=N)N)C(=O)O)C[C@@H]2CCCC[C@@H]21` is reported as over 10 µM (bradykinin B2 receptor (rat); rat brain membranes; together with: [3H]bradykinin).
`C[C@@H](Cc1ccsc1)NC(=O)NC[C@H](Cc1ccc(O)cc1)N(C)C` gave a Ki of over 50 µM (DRD5; cell-free assay).
`O=C1c2ccccc2CCCN1CCCCN1CCN(c2cccc(Cl)c2Cl)CC1` gave a Ki of 0.21 µM (Alpha-1D adrenergic receptor (ADRA1D, Homo sapiens, UniProt P25100); ligand displacement, radioligand).

For quick reference, copied from above:
For `CS(C)(=O)=Nc1ccc(-c2ccc(-c3nc4cc(O[C@@H]5CO[C@H]6[C@@H]5OC[C@H]6O)[nH]c4cc3F)cc2)cc1`, the inhibition was -5% (Angiopoietin-1 receptor (TEK, Homo sapiens, UniProt Q02763, R849W); enzyme activity, inhibitor; 10 µM).
The relative abundance of `COc1ccccc1-c1n[nH]c2nc(N[C@H]3CC[C@H](NS(=O)(=O)CC(C)C)CC3)ncc12` is reported as 0.73 (bead binding, competition bead pull-down, measured: LINJ.26.0770; Leishmania donovani extract; 10 µM; relative to: vehicle).
